{"data": "Results of several laboratories", "note": "Parts stem from different laboratories: compare values within a part only. Positions count from the first letter of the parent shown.", "chain of UniProt P35590 (whole entry, looked up)": "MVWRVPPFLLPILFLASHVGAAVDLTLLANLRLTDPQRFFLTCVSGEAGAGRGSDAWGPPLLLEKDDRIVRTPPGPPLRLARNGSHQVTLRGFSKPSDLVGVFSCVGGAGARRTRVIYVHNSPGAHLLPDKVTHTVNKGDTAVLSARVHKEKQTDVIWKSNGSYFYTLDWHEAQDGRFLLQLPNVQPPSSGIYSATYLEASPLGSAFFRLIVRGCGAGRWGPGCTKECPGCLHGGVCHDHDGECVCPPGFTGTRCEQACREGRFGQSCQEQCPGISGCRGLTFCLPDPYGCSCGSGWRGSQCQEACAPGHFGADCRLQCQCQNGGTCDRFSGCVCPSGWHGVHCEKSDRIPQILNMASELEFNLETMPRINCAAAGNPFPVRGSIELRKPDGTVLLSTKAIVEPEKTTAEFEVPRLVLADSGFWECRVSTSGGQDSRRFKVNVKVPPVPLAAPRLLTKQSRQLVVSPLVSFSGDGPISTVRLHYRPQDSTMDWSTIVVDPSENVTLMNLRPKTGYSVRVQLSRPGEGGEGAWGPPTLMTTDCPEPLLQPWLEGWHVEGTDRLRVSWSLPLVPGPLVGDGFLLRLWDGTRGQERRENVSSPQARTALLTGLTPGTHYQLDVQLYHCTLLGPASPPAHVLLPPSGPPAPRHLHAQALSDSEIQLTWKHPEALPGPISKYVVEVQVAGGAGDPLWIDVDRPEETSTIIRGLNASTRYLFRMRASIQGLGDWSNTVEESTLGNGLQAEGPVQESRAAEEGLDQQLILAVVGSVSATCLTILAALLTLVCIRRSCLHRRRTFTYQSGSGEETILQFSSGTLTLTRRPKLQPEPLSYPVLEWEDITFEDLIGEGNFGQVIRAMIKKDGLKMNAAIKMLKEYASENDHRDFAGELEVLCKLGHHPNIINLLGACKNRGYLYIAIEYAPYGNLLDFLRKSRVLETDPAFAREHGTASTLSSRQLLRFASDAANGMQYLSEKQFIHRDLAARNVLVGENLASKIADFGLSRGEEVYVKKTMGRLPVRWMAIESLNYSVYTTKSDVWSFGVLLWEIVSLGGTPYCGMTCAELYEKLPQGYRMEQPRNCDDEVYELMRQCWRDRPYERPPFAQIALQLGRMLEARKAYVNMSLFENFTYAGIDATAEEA", "chain of UniProt Q02779 (whole entry, looked up)": "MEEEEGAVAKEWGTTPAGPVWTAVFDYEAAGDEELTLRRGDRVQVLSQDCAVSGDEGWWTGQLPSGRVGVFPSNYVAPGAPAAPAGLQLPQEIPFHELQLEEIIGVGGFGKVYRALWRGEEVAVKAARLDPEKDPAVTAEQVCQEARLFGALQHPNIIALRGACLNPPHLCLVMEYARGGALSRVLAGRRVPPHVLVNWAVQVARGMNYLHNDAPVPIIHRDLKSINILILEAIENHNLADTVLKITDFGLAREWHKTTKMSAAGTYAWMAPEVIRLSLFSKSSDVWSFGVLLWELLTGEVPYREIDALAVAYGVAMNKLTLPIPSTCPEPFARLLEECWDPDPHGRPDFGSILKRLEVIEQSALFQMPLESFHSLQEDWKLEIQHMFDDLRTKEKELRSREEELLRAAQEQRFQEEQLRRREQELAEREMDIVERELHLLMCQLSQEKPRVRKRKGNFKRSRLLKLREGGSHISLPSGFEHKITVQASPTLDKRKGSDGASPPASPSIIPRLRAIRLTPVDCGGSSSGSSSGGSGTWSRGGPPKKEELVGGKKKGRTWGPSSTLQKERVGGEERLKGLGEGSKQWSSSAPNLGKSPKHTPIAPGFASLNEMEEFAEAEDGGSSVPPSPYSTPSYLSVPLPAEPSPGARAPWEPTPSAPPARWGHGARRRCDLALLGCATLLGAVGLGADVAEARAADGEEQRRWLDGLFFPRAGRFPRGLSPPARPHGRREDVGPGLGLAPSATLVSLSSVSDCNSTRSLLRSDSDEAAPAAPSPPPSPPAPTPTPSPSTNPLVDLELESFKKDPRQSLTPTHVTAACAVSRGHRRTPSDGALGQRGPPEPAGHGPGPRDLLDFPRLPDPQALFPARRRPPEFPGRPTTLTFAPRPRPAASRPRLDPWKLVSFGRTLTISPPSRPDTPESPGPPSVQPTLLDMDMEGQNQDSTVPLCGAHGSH", "chain of UniProt P27448 (whole entry, looked up)": "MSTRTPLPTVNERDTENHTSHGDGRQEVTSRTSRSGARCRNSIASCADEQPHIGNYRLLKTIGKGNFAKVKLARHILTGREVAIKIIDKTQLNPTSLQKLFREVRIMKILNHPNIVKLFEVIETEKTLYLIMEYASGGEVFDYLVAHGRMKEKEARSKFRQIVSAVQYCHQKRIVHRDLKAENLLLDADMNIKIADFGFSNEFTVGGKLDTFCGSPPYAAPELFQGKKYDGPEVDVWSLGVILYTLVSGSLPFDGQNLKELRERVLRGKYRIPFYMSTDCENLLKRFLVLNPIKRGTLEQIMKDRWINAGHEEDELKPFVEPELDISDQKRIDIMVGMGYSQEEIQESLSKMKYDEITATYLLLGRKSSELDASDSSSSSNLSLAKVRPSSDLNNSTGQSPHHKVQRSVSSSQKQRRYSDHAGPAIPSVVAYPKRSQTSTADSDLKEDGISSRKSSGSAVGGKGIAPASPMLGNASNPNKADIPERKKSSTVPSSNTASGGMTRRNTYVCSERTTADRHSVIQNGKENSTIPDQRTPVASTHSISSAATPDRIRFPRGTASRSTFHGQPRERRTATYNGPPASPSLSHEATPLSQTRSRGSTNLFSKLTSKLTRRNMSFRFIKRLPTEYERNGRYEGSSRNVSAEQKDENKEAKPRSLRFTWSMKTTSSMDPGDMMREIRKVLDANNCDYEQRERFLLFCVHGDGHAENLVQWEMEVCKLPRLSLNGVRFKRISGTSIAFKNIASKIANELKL", "chain of UniProt Q8TD08 (whole entry, looked up)": "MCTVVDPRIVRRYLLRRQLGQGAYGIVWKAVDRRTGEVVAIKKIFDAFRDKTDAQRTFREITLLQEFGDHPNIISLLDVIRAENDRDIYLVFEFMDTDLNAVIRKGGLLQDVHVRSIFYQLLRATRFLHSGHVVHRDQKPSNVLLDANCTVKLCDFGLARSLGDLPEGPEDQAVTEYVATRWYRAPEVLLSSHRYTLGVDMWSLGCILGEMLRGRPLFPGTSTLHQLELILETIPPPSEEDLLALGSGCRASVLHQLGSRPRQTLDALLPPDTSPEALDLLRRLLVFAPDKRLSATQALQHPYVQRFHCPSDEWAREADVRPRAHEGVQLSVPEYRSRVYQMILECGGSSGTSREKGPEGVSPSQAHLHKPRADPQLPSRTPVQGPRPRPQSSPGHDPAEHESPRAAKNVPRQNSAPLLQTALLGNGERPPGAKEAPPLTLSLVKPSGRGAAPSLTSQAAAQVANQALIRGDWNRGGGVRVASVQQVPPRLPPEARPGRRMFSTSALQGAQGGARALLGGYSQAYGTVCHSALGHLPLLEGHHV", "chain of UniProt Q04771 (whole entry, looked up)": "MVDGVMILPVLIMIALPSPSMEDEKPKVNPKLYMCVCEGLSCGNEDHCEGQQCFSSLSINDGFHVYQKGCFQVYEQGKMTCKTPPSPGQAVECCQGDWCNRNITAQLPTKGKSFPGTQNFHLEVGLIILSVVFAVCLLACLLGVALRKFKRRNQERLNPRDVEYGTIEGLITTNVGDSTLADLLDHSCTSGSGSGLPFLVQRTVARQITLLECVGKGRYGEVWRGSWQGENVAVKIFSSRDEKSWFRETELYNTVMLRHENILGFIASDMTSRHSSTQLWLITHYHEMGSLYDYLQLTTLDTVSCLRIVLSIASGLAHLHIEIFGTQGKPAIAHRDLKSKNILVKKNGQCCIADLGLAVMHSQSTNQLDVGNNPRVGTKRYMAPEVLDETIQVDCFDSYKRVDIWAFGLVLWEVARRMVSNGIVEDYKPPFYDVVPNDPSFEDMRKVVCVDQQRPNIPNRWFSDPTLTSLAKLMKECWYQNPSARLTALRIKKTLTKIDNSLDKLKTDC", "chain of UniProt Q9P1W9 (whole entry, looked up)": "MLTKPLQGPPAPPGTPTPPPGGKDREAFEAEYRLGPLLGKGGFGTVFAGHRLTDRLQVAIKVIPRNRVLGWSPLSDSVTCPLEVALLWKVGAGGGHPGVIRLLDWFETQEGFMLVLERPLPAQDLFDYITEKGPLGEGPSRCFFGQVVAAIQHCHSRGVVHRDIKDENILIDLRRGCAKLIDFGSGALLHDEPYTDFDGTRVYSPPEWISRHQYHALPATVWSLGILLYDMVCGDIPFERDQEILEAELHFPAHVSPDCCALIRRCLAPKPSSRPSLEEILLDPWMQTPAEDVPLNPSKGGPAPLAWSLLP", "chain of UniProt Q9Y243 (whole entry, looked up)": "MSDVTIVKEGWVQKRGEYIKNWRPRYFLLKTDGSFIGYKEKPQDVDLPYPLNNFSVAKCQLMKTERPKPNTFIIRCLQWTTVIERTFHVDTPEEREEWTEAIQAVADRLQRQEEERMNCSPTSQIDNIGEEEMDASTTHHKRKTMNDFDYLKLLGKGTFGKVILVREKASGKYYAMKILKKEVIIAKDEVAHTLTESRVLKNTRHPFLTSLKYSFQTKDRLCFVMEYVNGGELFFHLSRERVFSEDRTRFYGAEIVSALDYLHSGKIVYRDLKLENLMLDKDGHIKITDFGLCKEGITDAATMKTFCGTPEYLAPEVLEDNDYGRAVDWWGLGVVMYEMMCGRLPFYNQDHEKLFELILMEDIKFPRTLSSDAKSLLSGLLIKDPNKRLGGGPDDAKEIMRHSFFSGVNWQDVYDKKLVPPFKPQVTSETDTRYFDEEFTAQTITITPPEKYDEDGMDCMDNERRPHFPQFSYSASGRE", "chain of UniProt Q00526 (whole entry, looked up)": "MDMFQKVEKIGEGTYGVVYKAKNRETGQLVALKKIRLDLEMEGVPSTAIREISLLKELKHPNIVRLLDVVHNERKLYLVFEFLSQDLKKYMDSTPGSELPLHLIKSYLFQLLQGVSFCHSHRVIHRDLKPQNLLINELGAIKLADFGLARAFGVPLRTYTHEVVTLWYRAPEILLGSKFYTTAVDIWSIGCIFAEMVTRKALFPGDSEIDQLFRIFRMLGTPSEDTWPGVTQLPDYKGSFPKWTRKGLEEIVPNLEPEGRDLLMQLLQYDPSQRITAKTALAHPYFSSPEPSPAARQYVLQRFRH"}
{"data": "Sample 1", "SMILES": "CNC(=O)Nc1ccc2c(c1)[C@@]1(CC2)OC(=O)N(CC(=O)N(Cc2ccc(F)cc2)[C@@H](C)C(F)(F)F)C1=O", "read-out": "cell-free assay", "technique": "competition with immobilised ligand", "tested at": "1 µM"}
{"target": "PAK3 (Homo sapiens, UniProt O75914)", "remaining binding [%]": 91}
{"target": "CDK3 (Homo sapiens, UniProt Q00526)", "remaining binding [%]": 100}
{"target": "MAP3K13 (Homo sapiens, UniProt O43283)", "remaining binding [%]": 100}
{"target": "CDK16 (Homo sapiens, UniProt Q00536)", "remaining binding [%]": 83}
{"target": "MAP3K10 (Homo sapiens, UniProt Q02779)", "remaining binding [%]": 73}
{"target": "PIM2 (Homo sapiens, UniProt Q9P1W9)", "remaining binding [%]": 89}
{"target": "Tyrosine-protein kinase ABL1, non-phosphorylated (ABL1, Homo sapiens, UniProt P00519, Q252H)", "remaining binding [%]": 88}
{"target": "ACVR1 (Homo sapiens, UniProt Q04771)", "remaining binding [%]": 89}
{"target": "Non-receptor tyrosine-protein kinase TYK2, JH2 (TYK2, Homo sapiens, UniProt P29597)", "remaining binding [%]": 68}
{"target": "MARK3 (Homo sapiens, UniProt P27448)", "remaining binding [%]": 100}
{"target": "AKT3 (Homo sapiens, UniProt Q9Y243)", "remaining binding [%]": 94}
{"target": "TIE1 (Homo sapiens, UniProt P35590)", "remaining binding [%]": 100}
{"target": "EGFR (Homo sapiens, UniProt P00533)", "remaining binding [%]": 100}
{"target": "MAPK14 (Homo sapiens, UniProt Q16539)", "remaining binding [%]": 100}
{"target": "MAPK15 (Homo sapiens, UniProt Q8TD08)", "remaining binding [%]": 93}
{"data": "Sample 2", "host": "mouse", "medium": "microsomes or S9", "tested at": "2 µM", "time": "0.5 h"}
{"SMILES": "O=C(O)c1nccnc1C(=O)Nc1nc(-c2cccs2)n[nH]1", "remaining compound [%]": 91.2}
{"SMILES": "CCOc1cc(=O)n2c(c1C(=O)N1CCCc3ccccc31)CCCC2", "remaining compound [%]": 0.347}
{"SMILES": "Cc1ccc(S(=O)(=O)n2cc(Br)c3c(N4CCC(N5CCOCC5)CC4)ncnc32)cc1", "remaining compound [%]": 0.54}
{"data": "Sample 3", "technique": "PRP chromatography estimate", "medium": "1,9-decadiene/PBS", "pH": "7.4"}
{"Compound": "CC(C)C[C@@H]1NC(=O)[C@H](CC(C)C)NC(=O)[C@@H](CC(C)C)NC(=O)[C@H](C(C)C)NC(=O)[C@H](C(C)C)NC(=O)[C@H](C)NC(=O)[C@H](C)NC1=O", "logD": -1.3}
{"Compound": "CC(C)C[C@@H]1NC(=O)[C@H](CC(C)C)NC(=O)[C@H](CC(C)C)NC(=O)[C@H](C(C)C)NC(=O)[C@@H](Cc2cscn2)NC(=O)[C@H](C)NC(=O)[C@H](CCC(=O)N2CCCC2)NC1=O", "logD": -2.08}
{"Compound": "CC(C)C[C@@H]1NC(=O)[C@H](C)NC(=O)[C@H](CC(C)C)NC(=O)[C@@H](CC(C)C)NC(=O)[C@H](CC(C)C)NC(=O)[C@@H](C)NC(=O)[C@H](CCC(=O)N2CCCC2)NC1=O", "logD": -1.72}
{"Compound": "CC(C)C[C@@H]1NC(=O)[C@H](CC(C)C)NC(=O)[C@H](CC(C)C)NC(=O)[C@H](C(C)C)NC(=O)[C@@H](Cc2cscn2)NC(=O)[C@H](CCC(=O)N2CCCC2)NC(=O)[C@H](C)NC1=O", "logD": -2.25}
{"data": "Sample 4", "target": "CREB3L1, bZIP domain (human)", "technique": "DHFR protein complementation", "medium": "yeast", "setting": "single substitutions, most at no-binding floor", "reference": "wild-type JUN-FOS pair", "reading": "higher = stronger binding", "parent": "JUN, bZIP domain (human); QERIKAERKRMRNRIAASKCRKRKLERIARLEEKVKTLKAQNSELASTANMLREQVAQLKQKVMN; partner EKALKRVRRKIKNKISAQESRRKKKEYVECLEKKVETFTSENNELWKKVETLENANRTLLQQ"}
{"Substitution": "I28L", "binding fitness [natural log]": -1.44}
{"Substitution": "A40P", "binding fitness [natural log]": -1.47}
{"Substitution": "E54P", "binding fitness [natural log]": -1.53}
{"Substitution": "V56Q", "binding fitness [natural log]": -1.46}
{"Substitution": "K34M", "binding fitness [natural log]": -1.47}
{"Substitution": "E33S", "binding fitness [natural log]": -1.44}
{"Substitution": "A40E", "binding fitness [natural log]": -1.22}
{"Substitution": "I28C", "binding fitness [natural log]": -1.34}
{"note": "Excerpt of the above (sample 4):"}
{"Substitution": "K34M", "binding fitness [natural log]": -1.47}
{"Substitution": "E33S", "binding fitness [natural log]": -1.44}
{"Substitution": "I28L", "binding fitness [natural log]": -1.44}
{"Substitution": "E54P", "binding fitness [natural log]": -1.53}
